Published values from different studies.
Each line is one published result; not all experiments were run side by side. Several values in a cell are separate wells, animals, samples, runs or records.

Nc1ncc(-c2cc(-c3cnn(CC(F)(F)F)c3)ncc2F)nc1C(=O)NC1CNCC(F)C1 (stereo not shown)
remaining binding (PYK2; KINOMEscan; 1 µM; relative to: DMSO control): 88%

COc1ccccc1-c1ccncc1C(=O)Nc1nnc(OCc2ccc(Cl)cc2)s1
colony survival (MDA-MB-436 BRCA1-mutant; 1.5 µM, single replicate; relative to: untreated): 45.2% and 57.4% and 48.1%

CCN(CC)CC(=O)Nc1cccc(-n2cc(-c3ccc4ccc(-c5cn(-c6cccc(NC(=O)CN(CC)CC)c6)nn5)cc4c3)nn2)c1
fold regulation (RCC4; PCR angiogenesis array, item: FGFR3; 5 x IC50, 4 h, normoxia; relative to: untreated): -1.19

Cc1ncsc1-c1ccc(C(C)NC(=O)C2CC(O)CN2C(=O)C(NC(=O)CCCCCCCCCCN2CCCC(Nc3ncc(Cl)c(Nc4ccccc4S(=O)(=O)C(C)C)n3)C2)C(C)(C)C)cc1 (stereo not shown)
log2 fold change (22Rv1; RNA-seq, item: SLC12A7 mRNA; concentration not given; relative to: DMSO): -1

CN1CCCNC(=O)c2cccc(c2)C(=O)NCCCN(C)CCCNc2cccc3c2C(=O)c2cccc(c2C3=O)NCCC1
log2 fold change (SAS; RNA-Seq, item: SPTLC2 mRNA; 1 µM, 6 h; relative to: untreated cells): -0.98

C=CC(=O)N1[C@@H](c2ccc3c(c2)OCO3)c2[nH]c3ccccc3c2C[C@H]1C(=O)N1CCN(C)CC1
relative co-enrichment (human cyclin E1 N112C-3xFLAG:CDK2; co-IP with TMT proteomics, item: PUF60; concentration not given, Q9UHX1; relative to: wild type DMSO): 132%

CNS(=O)(=O)Nc1nccc(Cc2c(C)c3ccc(Oc4ncccc4F)cc3oc2=O)c1F
IC50 (NCI-H446; cell viability; 7 days): > 1 µM

COc1cc2c(NC3CCN(C(C)C)CC3)cc(N3CCOCC3)nc2cc1OCCCN1CCCC1
normalised protein abundance (TMT quantitative proteomics, item: GOT1 (cytoplasmic); APP AD model mice, hippocampus; dose not given): -0.0469 and 0.022 and 0.00218 and 0.0105 and 0.0128 and 0.0497 and -0.0503 and -0.0198

C=CC(=O)Nc1cccc(Cn2ncc3cnc(Nc4cnn(CCOC)c4)nc32)c1
percent of control (PIM1 human; binding, KINOMEscan; 100 nM; lower = stronger binding): 100%

COC1CN([C@H]2CC[C@H]([C@@]3(C)Oc4c(Cl)cc(C(=O)NCc5c(SC)cc(C)[nH]c5=O)c(C)c4O3)CC2)C1
log2 fold change (RNA-seq, item: TRIM36; human, whole blood; dose not given, 24 h; relative to: pretreatment baseline): 1.58
